Published values pooled from the literature.
Parts stem from different laboratories: compare values within a part only. Changes are numbered by the printed parent chain.

Sample 1
Target: Sox-I, HMG box (Salpingoeca helianthica)
Method: Spec-seq
Molecule type: double-stranded DNA, one strand shown
Sample: in vitro
Tested at: not given
Notes: whole probe, mean of replicates
Relative to: not given
Direction: lower = stronger binding
All sequences stand within: GAGTCGTCTCGTCAGCAC … CCGTAGAGCACTCAGGTC
Residues (chain): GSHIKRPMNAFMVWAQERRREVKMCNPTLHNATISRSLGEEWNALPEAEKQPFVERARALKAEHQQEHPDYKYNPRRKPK
Oligonucleotide	relative binding energy [ln ratio]
GAGAGTT	0.909
TGGAGTT	0.653
CATAGGC	0.359
CATTTCT	0.625
GCTCGTT	0.659
GGTGGTT	0.962
GCACGTT	0.639
CATCTGA	0.852

Sample 2
Target: Ras GTPase-activating protein-binding protein 1, C-terminal RGG region (G3BP1, Homo sapiens, UniProt Q13283)
Sequence of UniProt Q13283 (whole entry, looked up): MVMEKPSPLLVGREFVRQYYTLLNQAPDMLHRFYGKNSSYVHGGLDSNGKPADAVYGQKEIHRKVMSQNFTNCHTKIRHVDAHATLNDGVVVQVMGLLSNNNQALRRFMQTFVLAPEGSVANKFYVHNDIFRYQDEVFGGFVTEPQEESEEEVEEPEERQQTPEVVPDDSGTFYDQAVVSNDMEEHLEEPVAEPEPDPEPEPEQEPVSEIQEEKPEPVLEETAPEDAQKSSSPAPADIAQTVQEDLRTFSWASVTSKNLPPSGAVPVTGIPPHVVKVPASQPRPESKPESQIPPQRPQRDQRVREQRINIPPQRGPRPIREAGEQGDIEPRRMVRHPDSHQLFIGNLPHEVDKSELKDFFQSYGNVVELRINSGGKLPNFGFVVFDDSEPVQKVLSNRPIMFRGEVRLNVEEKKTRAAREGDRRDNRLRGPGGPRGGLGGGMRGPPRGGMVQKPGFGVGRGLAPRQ
Method: RNA Bind-n-Seq
Molecule type: RNA
Sample: in vitro
Tested at: 1 µM
Notes: whole 134-nt RNA, ends assumed
Together with: 150 mM KCl
Relative to: input library
Direction: higher = stronger binding
All sequences stand within: GGGAGUUCUACAGUCCGACGAUC … UGGAAUUCUCGGGUGUCAAGG
Oligonucleotide	log2 enrichment
CUCAAGUCCUGUGCUACACAUCGUAUGUACCGAAUCGGGUGGGGUGGGGUGGGGAAAGUAUUAUGUUACGCCGUUCGGAUCUGCACUUCC	2.46
CCUCAAGUCCUGUGCUACACAUCGUAUGUACCGAAUCGGAGGAAAGGAAAGGAAAGUAUUAUGUUACGCCGUUCGGAUCUGCACUUCCAG	-1.02
AGUCCUGUGCUACACAUCGUAUGUACCGAAUCGGGCCCCGGGGCCCCGGCCCCGGGGAAAGUAUUAUGUUACGCCGUUCGGAUCUGCACU	-2.91
GUCCUGUGCUACACAUCGUAUGUACCGAAUCGGCCCCCGGGCCCCCGGGGCCCCCGGGGAAAGUAUUAUGUUACGCCGUUCGGAUCUGCA	-1.84
AGUCCUGUGCUACACAUCGUAUGUACCGAAUCGGGUUUUUGGUUUUUGGGUUUUUGGGAAAGUAUUAUGUUACGCCGUUCGGAUCUGCAC	-1.43
CAAGUCCUGUGCUACACAUCGUAUGUACCGAAUCGGUUUGGAAAGGAAAAAAAGGAAAGUAUUAUGUUACGCCGUUCGGAUCUGCACUUC	-1.49
UGACUUUAGGAGAUACCUUAACUCGACGUUCCAUUAGCCAGCAGAAGUCCGGAGUUUCCAUUACCAUUGAUGACCCAGUCCGAACUGCCC	-0.615
ACCAUGCAGGUGGAAAUCUUUGGGAAGUGGGGCAAGGGGGGGAUAGGGAGGGGGGUAACACUUUGGGAACAGGUGGUCCCAGGUCGUUUC	-0.869

Further values, each from its own experiment
P1: PafA, mature enzyme, eGFP fusion (Elizabethkingia meningoseptica, UniProt Q9KJX5); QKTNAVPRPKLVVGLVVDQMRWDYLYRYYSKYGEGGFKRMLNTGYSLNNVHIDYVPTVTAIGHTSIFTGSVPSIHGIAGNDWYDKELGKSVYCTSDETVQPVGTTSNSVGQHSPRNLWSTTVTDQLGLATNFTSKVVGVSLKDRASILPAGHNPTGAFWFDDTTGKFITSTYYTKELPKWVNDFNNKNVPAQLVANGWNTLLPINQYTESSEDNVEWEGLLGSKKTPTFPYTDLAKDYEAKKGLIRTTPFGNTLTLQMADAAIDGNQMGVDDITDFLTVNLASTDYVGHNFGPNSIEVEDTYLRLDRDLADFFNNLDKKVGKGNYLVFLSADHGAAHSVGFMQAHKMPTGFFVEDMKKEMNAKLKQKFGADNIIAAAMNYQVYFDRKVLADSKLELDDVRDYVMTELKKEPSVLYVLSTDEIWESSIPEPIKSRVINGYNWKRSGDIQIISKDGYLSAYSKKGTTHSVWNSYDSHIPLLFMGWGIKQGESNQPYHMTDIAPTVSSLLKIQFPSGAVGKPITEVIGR
Molecule	target or system	test	test system	conditions	scale	endpoint	value
BYSL (Homo sapiens, UniProt Q13895)	RRP12 (Homo sapiens, UniProt Q5JTH9)	cross-linking MS		hits only		interaction screen	cross-linked
AAAVRKPIVLKR	human cyclin B1	peptide binding, yeast competitive growth sequencing	peptide, Saccharomyces cerevisiae, cyclin B1-Cln2 fusion	concentration not given, peptide tiling library	direction not given	binding enrichment score	-0.0293
SRSF3 (Homo sapiens, UniProt P84103)	SRSF7 (Homo sapiens, UniProt Q16629)	cross-linking MS		hits only		interaction screen	cross-linked
P1 A240V	inorganic phosphate, free oxyanion	microfluidic competitive inhibition	in vitro, cell-free expressed	not given, derived from inhibition constants, unchanged parent 615000 nM	lower = stronger binding	phosphate dissociation constant	670 µM

Repeated from above (sample 1):
Oligonucleotide	relative binding energy [ln ratio]
CATAGGC	0.359
